{"data": "Experimental data gathered from unrelated publications", "note": "Parts stem from different laboratories: compare values within a part only."}
{"data": "Block 1", "target": "Ras GTPase-activating protein-binding protein 1, RRM domain (G3BP1, Homo sapiens, UniProt Q13283)", "method": "RNA Bind-n-Seq", "molecule type": "RNA", "matrix": "in vitro", "concentration": "1 µM", "notes": "whole 134-nt RNA, ends assumed", "added": "150 mM KCl", "relative to": "input library", "direction": "higher = stronger binding", "sequence of UniProt Q13283 (whole entry, looked up)": "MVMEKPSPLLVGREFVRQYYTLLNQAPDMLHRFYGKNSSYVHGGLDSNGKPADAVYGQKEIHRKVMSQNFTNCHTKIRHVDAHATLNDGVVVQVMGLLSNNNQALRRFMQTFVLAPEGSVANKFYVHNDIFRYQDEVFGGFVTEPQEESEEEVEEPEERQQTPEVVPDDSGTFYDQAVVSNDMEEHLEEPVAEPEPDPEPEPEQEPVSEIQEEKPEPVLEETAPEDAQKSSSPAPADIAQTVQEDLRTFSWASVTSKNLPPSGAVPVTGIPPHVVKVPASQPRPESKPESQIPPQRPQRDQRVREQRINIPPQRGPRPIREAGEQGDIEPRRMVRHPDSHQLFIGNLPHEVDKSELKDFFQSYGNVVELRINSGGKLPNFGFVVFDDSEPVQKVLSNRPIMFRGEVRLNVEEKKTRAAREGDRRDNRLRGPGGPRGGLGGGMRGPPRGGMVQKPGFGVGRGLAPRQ"}
{"Oligonucleotide": "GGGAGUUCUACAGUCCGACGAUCUAACUUUAGAGGAGGAUCUGAUGGAUAUGGCAGUGGACGUGGAUUUGGGGAUGGCUAUAAUGGGCAUGGAGGAGGACCUGGAGGUGGCAAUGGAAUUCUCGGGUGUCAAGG", "log2 enrichment": -0.509}
{"Oligonucleotide": "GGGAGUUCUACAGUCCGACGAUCCCUCAAGUCCUGUGCUACACAUCGUAUGUACCGAAUCGGGAGGGGAGGGGAGGAAAGUAUUAUGUUACGCCGUUCGGAUCUGCACUUCCAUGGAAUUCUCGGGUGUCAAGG", "log2 enrichment": -0.137}
{"Oligonucleotide": "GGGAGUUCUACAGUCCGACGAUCCACAGACAACACGCACCCACACAGACACAGAGGGAAAAAGUUGGGAUGGGGACAGGGUGCACAGCAGGGCGGGGUAGGACCCCAGCCCCUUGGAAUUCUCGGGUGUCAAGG", "log2 enrichment": -0.204}
{"Oligonucleotide": "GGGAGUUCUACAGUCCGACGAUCCCUCAAGUCCUGUGCUACACAUCGUAUGUACCGAAUCGGCCGGCCGGGCCGGGAAAGUAUUAUGUUACGCCGUUCGGAUCUGCACUUCCAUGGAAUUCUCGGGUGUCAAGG", "log2 enrichment": -0.394}
{"Oligonucleotide": "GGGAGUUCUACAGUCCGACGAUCUAACUUUAGAGGAGGAUCUGAUGGAUAUGGCAGUGGACGUGUAUUUGGGGAUGGCUAUAAUGGGUAUGGAGGAGGACCUGGAGGUGGCAAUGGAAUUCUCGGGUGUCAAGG", "log2 enrichment": -0.592}
{"Oligonucleotide": "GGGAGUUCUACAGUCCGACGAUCUGGCCCUGGUGGCAUGCGGGGAGGAAGAGGUGGCCUCAUGGAUCGUGGUGGUCCCGGUGGGAUGUUCAGAGGUGGCCGUGGUGGAGACAGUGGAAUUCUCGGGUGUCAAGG", "log2 enrichment": 1.09}
{"Oligonucleotide": "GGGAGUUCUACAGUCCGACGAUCCAAGUCCUGUGCUACACAUCGUAUGUACCGAAUCGGGAGGGAAAAAGGGAAAGGGAAAGUAUUAUGUUACGCCGUUCGGAUCUGCACUUCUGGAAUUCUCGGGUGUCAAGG", "log2 enrichment": 0.95}
{"Oligonucleotide": "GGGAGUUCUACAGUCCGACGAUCUGGCCCUGGUGGCAUGCGGGGAGGAAGAGGUGGCCUCAUGGAUCGUGGUGGUCCCGGUGGAAUGUUCAGAGGUGACCGUGGUGGAGACAGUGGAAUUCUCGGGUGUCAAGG", "log2 enrichment": 1.06}
{"data": "Block 2", "cell line": "HEK-293T-ACE2", "concentration": "concentration not given", "relative to": "vehicle"}
{"Structure (SMILES)": "CC(=O)O[C@]1(C(C)=O)CC[C@H]2[C@@H]3C[C@H](C)C4=CC(=O)CC[C@]4(C)[C@H]3CC[C@@]21C", "cell number": "102%"}
{"Structure (SMILES)": "CC(=O)NO", "cell number": "105%"}
{"Structure (SMILES)": "CC(C)C[C@H](NC(=O)CNC(=O)c1cc(Cl)ccc1Cl)B(O)O", "cell number": "55.6%"}
{"data": "Block 3", "target": "Replicase polyprotein 1ab, main protease (rep, Severe acute respiratory syndrome coronavirus 2, UniProt P0DTD1)", "effect on": "enzyme activity", "mode": "inhibitor", "concentration": "20 µM", "notes": "hit confirmation, no DTT"}
{"SMILES": "COC(=O)CC[C@H](NC(=O)[C@H](CC(=O)OC)NC(=O)OCc1ccccc1)C(=O)N[C@H](C(=O)N[C@@H](CC(=O)OC)C(=O)CF)C(C)C", "inhibition [%]": 110}
{"SMILES": "O=C(O)CCCCCCCCCCCCCCc1ccc(I)cc1", "inhibition [%]": 98.4}
{"SMILES": "COc1ncc(-c2ccc3nccc(-c4ccnnc4)c3c2)cc1NS(=O)(=O)c1ccc(F)cc1F", "inhibition [%]": 107}
{"data": "Block 4", "target": "Sal-like protein 4, full length isoform A (SALL4, Homo sapiens, UniProt Q9UJQ4, residues 1-1053)", "method": "universal PBM", "molecule type": "double-stranded DNA, one strand shown", "matrix": "in vitro", "concentration": "600 nM", "notes": "8-mer, flanks averaged, mean of replicates", "direction": "higher = stronger binding", "sequence of UniProt Q9UJQ4 (whole entry, looked up)": "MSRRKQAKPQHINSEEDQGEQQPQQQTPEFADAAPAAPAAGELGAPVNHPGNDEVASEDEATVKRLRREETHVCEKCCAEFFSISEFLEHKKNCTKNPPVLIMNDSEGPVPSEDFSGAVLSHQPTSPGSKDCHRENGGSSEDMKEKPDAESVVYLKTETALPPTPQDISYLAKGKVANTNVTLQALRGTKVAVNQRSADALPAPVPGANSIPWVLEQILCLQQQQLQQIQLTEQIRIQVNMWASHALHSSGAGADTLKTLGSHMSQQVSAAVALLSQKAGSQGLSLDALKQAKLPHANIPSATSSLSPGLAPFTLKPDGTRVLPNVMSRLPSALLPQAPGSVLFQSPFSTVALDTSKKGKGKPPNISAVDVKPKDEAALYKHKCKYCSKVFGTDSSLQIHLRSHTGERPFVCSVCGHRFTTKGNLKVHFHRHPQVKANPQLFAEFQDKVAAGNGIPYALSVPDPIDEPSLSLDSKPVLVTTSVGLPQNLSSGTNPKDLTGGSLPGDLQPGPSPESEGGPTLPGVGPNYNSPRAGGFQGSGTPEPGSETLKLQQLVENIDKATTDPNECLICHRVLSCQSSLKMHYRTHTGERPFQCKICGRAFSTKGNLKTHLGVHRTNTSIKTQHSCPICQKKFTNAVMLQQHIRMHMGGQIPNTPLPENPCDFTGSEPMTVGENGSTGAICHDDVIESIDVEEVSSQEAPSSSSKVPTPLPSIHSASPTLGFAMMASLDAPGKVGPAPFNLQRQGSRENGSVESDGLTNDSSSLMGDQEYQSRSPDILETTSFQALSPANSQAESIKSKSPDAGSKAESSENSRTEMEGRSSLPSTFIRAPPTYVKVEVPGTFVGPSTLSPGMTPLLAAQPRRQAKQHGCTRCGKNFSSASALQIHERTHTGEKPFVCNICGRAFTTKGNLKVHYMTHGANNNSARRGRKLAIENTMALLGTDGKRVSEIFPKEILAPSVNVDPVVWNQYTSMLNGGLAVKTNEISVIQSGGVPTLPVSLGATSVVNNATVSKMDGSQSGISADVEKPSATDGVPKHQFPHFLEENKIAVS"}
{"Oligonucleotide": "GTGTAAAC", "E-score": 0.104}
{"Oligonucleotide": "GTAATAAC", "E-score": 0.36}
{"Oligonucleotide": "AACCTTGT", "E-score": -0.0506}
{"Oligonucleotide": "GCCGAAGC", "E-score": -0.27}
{"Oligonucleotide": "ACGGAAAT", "E-score": 0.117}
{"Oligonucleotide": "CAGCAGTA", "E-score": -0.0185}
{"Oligonucleotide": "AAACCGGC", "E-score": -0.371}
{"Oligonucleotide": "ACCTAGGC", "E-score": -0.231}
{"data": "Block 5", "target": "Interferon regulatory factor 3, full length, phosphomimetic (IRF3, Homo sapiens, UniProt Q14653, residues 1-427, S386D/S396D/S398D/S402D/T404D/S405D)", "method": "protein-binding microarray", "molecule type": "double-stranded DNA, one strand shown", "matrix": "in vitro", "concentration": "2540 nM top", "notes": "60-bp whole probe", "added": "salmon DNA 0.4 mg/ml", "relative to": "random background probes", "direction": "higher = stronger binding", "all sequences stand within": "GCCTAGCAC … GTCTTGATTCGCTTGACGCTGCTG", "sequence of UniProt Q14653 (whole entry, unmodified, looked up)": "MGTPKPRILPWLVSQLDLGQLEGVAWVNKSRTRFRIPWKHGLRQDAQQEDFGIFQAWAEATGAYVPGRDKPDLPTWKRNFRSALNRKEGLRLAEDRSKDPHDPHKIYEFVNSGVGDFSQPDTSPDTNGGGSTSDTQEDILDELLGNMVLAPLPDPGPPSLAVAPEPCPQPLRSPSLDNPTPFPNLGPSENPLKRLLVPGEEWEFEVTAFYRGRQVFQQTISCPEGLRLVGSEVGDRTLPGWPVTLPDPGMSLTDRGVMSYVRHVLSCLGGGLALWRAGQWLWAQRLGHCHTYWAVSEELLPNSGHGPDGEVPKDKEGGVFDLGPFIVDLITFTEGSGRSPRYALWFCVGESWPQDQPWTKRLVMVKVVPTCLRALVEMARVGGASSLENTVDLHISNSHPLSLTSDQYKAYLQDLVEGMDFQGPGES"}
{"Oligonucleotide": "GACGGTTTCCTTTCCATGACGTGCTAG", "fitted relative affinity": "9.86 z-score"}
{"Oligonucleotide": "GACGGTTTCCTTTCCCTCACGTGCTAG", "fitted relative affinity": "10 z-score"}
{"Oligonucleotide": "TCATTTTTTTTCATCATACTGTGCTAG", "fitted relative affinity": "1.23 z-score"}
{"Oligonucleotide": "TGTAATGATGTAGGCAAATGGTGCTAG", "fitted relative affinity": "-0.476 z-score"}
{"Oligonucleotide": "CGAGTTTCCATTTTCTGAATGTGCTAG", "fitted relative affinity": "8.8 z-score"}
{"Oligonucleotide": "GACGATTTCGGGTTTGGAGACGTGCTA", "fitted relative affinity": "2.35 z-score"}
{"Oligonucleotide": "TTAGATATCAGGTTTCGATTAGTGCTA", "fitted relative affinity": "2.91 z-score"}
{"Oligonucleotide": "GATTTTTTAGCTTGCAAAAAGTGCTAG", "fitted relative affinity": "0.357 z-score"}
{"data": "Block 6", "target": "Replicase polyprotein 1ab, polymerase (rep, Severe acute respiratory syndrome coronavirus 2, UniProt P0DTD1)", "effect on": "enzyme activity", "mode": "inhibitor", "concentration": "20 µM"}
{"Compound": "NC(=O)c1cccc(N)c1", "inhibition": "3.7%"}
{"Compound": "CC(=O)c1cnc2ccc(-c3cc(Cl)c(O)c(Cl)c3)nc2c1N[C@H]1CC[C@H](CN(C)C)CC1", "inhibition": "25.4%"}
{"Compound": "Clc1cccc2c1CN(C1=NCCN1)C2", "inhibition": "1.92%"}
{"Compound": "CCCCNc1c(C(=O)OCC)c(C)nc2c1cnn2CC", "inhibition": "-1.64%"}
{"Compound": "CC(C)C[C@H](NC(=O)[C@H](CCCCN)NC(=O)[C@H](CCCNC(=N)N)NC(=O)[C@H](C)NC(=O)[C@H](CO)NC(=O)[C@H](CCCCN)NC(=O)[C@H](CCCNC(=N)N)NC(=O)[C@H](C)NC(=O)CNC(=O)[C@@H](NC(=O)[C@H](Cc1ccccc1)NC(=O)CNC(=O)CNC(=O)[C@@H](N)Cc1ccccc1)[C@@H](C)O)C(=O)N[C@@H](C)C(=O)N[C@@H](CC(N)=O)C(=O)N[C@@H](CCC(N)=O)C(=O)O", "inhibition": "-2.52%"}
{"Compound": "CN1CCN(c2cccc3[nH]c(=O)oc23)CC1", "inhibition": "-1.29%"}
{"Compound": "CC(C)(C)[C@]1(O)C[C@@H]2OC(=O)C[C@@]23C(=O)O[C@@H]2OC(=O)[C@H](O)[C@]213", "inhibition": "0.91%"}
{"Compound": "CNC(=O)c1cccc(NC(=O)N2CCC(Oc3ccccc3Cl)CC2)c1", "inhibition": "-2.71%"}
{"Compound": "Cc1cc(C(=O)Nc2nc3cccc(Cl)c3n2[C@@H]2CCCCN(C(=O)/C=C/CN(C)C)C2)ccn1", "inhibition": "8.92%"}
{"Compound": "N#Cc1cccc(C(=O)Nc2cc(-c3ccccc3)nn2-c2ccccc2)c1", "inhibition": "-1.65%"}
{"Compound": "COc1ccccc1OC(=O)CNC(=O)Cc1ccc(C(=O)c2ccc(C)cc2)n1C", "inhibition": "-11.9%"}
{"Compound": "COc1ccc(-c2oc3cc(OC)ccc3c2C(=O)c2ccc(C#N)cc2)cc1", "inhibition": "0.5%"}
{"Compound": "CN(C)CCCn1cc(C2=C(c3c[nH]c4ccccc34)C(=O)NC2=O)c2ccccc21", "inhibition": "4.27%"}
{"Compound": "Cc1nc(C#Cc2ccnc(Cl)c2)c(C)n1-c1ccc(F)cc1", "inhibition": "0.72%"}
{"Compound": "N#Cc1ccc(N2CCN(C(=O)COc3ccc4[nH]cc(CCN)c4c3)CC2)cc1", "inhibition": "-2.29%"}
{"Compound": "Nc1ncnc2c1c(-c1cccc(OCc3ccccc3)c1)cn2C1CC(CN2CCCC2)C1 (stereo in doubt)", "inhibition": "-10.1%"}
{"Compound": "CCCCN(CC)c1c([N+](=O)[O-])cc(C(F)(F)F)cc1[N+](=O)[O-]", "inhibition": "-8.32%"}
{"Compound": "CO[C@H]1/C=C/O[C@@]2(C)Oc3c(C)c(O)c4c(O)c(c(/C=N/N5CCN(C6CCCC6)CC5)c(O)c4c3C2=O)NC(=O)/C(C)=C\\C=C\\[C@H](C)[C@H](O)[C@@H](C)[C@@H](O)[C@@H](C)[C@H](OC(C)=O)[C@@H]1C", "inhibition": "16%"}
{"Compound": "Cc1c(Cl)cccc1S(=O)(=O)Nc1nc(CC(=O)N2CCN(C)CC2)cs1", "inhibition": "-0.05%"}
{"Compound": "CCc1c(C(=O)NCCc2ccc(N3CCCCC3)cc2)[nH]c2ccc(Cl)cc12", "inhibition": "-1.48%"}
{"Compound": "Cc1noc(NS(=O)(=O)c2ccc(N)cc2)c1C", "inhibition": "17.6%"}
{"Compound": "Cl[C@H]1[C@H](Cl)[C@@H](Cl)[C@@H](Cl)[C@H](Cl)[C@H]1Cl", "inhibition": "-0.01%"}
{"Compound": "CC(C)[C@H](CO)Nc1nc(Nc2cc(N)cc(Cl)c2)c2ncn(C(C)C)c2n1", "inhibition": "5.56%"}
{"Compound": "NCc1ccccc1CC(=O)N[C@@H]1C(=O)N2C(C(=O)O)=C(CSc3nnnn3CC(=O)O)CS[C@H]12", "inhibition": "5.92%"}
{"Compound": "NC(=O)c1cnc2[nH]ccc2c1N[C@@H]1[C@@H]2CC3C[C@H]1C[C@@](O)(C3)C2", "inhibition": "1.88%"}
